Assay results pooled from the literature.
Chromobox protein homolog 8: Chromobox protein homolog 8 (Homo sapiens, UniProt Q9HC52)
UniProt Q9HC52, sequence (whole entry, looked up): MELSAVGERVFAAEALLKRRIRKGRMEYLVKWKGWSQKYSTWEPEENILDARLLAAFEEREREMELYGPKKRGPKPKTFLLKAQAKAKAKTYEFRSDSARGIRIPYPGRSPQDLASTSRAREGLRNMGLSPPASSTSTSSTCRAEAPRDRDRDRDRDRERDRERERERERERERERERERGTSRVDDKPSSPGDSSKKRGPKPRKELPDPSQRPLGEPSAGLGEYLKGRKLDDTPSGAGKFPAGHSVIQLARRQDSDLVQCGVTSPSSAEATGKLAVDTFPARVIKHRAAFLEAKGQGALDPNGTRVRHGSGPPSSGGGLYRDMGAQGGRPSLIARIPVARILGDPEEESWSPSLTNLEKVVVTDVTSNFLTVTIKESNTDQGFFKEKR
CA12: Carbonic anhydrase 12 (CA12, Homo sapiens, UniProt O43570)
UniProt O43570, sequence (whole entry, looked up): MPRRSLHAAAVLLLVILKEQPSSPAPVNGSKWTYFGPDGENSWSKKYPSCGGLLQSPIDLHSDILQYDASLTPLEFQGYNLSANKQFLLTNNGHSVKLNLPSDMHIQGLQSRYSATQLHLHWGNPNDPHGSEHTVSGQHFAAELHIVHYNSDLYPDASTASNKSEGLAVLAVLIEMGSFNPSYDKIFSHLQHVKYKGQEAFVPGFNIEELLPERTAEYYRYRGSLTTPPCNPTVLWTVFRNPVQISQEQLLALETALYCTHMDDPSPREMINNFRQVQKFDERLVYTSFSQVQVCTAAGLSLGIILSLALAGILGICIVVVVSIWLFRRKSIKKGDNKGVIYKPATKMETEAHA
Capn2: Calpain-2 catalytic subunit (Capn2, Mus musculus, UniProt O08529)
UniProt O08529, sequence (whole entry, looked up): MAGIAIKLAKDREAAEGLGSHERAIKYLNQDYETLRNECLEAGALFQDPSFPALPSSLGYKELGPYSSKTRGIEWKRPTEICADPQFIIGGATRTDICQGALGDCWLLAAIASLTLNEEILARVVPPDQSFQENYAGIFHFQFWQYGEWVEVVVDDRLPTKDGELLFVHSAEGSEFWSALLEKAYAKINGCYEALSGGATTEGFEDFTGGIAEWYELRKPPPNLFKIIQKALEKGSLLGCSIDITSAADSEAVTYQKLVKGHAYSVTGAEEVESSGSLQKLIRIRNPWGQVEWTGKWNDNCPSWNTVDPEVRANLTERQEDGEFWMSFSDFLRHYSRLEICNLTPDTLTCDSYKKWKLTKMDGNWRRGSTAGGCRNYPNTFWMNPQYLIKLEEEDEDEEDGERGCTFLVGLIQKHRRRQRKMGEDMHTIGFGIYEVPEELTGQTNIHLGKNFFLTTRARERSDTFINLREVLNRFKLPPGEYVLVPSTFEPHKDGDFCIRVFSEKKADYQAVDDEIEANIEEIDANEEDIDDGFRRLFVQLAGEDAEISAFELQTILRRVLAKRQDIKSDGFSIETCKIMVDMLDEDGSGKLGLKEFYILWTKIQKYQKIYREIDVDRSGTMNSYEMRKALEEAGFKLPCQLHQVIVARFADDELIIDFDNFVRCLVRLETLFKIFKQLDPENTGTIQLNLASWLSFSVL
Chromobox protein homolog 6: Chromobox protein homolog 6 (Homo sapiens, UniProt O95503)
UniProt O95503, sequence (whole entry, looked up): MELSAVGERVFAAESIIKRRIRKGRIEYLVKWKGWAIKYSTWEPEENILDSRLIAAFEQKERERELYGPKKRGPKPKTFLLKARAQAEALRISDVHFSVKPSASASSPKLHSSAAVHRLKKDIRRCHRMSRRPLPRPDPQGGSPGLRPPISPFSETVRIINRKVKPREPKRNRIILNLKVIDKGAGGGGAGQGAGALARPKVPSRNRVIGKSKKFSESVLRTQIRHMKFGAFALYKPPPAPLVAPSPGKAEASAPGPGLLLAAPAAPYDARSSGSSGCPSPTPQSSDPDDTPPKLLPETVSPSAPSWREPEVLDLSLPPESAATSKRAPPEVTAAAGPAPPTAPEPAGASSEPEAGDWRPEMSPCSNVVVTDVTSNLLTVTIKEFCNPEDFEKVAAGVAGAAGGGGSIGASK
UniProt Q16539, sequence (whole entry, looked up): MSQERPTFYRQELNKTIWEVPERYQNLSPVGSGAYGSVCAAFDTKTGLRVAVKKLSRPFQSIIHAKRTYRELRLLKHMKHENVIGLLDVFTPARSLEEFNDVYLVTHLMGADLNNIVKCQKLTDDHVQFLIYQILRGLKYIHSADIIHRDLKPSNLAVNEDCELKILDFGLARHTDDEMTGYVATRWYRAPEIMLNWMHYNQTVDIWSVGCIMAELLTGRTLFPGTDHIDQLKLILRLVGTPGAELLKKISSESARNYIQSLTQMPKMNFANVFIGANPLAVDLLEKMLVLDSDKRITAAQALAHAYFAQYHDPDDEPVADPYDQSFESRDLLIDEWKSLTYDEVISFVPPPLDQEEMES
UniProt O75116, sequence (whole entry, looked up): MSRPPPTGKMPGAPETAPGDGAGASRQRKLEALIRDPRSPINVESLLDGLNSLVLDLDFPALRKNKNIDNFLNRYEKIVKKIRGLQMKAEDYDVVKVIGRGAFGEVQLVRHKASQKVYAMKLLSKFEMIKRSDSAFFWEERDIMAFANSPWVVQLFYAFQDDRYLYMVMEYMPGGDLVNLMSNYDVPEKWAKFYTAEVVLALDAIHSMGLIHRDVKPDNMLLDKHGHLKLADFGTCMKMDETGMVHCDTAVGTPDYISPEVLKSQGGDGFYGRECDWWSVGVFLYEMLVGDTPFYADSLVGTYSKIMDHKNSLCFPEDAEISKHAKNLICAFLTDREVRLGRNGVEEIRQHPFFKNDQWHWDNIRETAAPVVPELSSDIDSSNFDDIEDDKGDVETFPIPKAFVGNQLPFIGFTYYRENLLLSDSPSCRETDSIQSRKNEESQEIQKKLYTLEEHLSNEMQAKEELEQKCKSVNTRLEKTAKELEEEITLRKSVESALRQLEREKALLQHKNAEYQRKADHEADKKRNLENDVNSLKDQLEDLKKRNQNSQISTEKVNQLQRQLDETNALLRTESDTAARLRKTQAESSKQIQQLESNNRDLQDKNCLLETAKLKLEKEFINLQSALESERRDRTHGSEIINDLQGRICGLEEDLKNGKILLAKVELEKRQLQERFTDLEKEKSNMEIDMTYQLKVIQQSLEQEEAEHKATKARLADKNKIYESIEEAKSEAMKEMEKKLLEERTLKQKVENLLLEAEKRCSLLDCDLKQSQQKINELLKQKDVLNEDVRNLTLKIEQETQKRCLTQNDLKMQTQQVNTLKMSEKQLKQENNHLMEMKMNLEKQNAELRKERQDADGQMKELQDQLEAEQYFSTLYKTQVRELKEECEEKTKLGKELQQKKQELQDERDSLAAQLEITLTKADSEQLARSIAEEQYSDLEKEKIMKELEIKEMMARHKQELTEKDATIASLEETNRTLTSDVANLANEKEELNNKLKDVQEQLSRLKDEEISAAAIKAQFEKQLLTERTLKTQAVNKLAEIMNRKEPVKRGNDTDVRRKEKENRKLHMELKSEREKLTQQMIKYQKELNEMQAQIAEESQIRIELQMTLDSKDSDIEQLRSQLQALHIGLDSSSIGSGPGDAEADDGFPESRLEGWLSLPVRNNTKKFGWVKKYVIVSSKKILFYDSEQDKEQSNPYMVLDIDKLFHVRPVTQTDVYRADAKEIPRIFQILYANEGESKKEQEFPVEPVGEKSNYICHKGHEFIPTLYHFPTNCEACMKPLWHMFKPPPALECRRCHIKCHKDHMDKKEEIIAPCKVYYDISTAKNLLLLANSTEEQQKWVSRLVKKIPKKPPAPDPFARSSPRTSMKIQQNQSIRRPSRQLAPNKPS
UniProt Q02790, sequence (whole entry, looked up): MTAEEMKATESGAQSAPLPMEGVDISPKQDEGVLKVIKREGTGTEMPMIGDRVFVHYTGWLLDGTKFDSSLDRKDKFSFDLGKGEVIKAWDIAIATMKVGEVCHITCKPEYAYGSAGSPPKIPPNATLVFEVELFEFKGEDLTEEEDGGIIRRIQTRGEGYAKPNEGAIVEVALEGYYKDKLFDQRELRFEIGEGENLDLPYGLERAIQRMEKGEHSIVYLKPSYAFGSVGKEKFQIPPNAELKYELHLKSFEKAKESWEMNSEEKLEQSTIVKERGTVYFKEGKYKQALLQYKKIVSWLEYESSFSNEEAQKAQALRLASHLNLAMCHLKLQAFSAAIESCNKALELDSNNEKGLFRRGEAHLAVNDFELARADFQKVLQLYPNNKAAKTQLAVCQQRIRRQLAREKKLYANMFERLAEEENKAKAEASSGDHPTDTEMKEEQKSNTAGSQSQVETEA
UniProt O95551, sequence (whole entry, looked up): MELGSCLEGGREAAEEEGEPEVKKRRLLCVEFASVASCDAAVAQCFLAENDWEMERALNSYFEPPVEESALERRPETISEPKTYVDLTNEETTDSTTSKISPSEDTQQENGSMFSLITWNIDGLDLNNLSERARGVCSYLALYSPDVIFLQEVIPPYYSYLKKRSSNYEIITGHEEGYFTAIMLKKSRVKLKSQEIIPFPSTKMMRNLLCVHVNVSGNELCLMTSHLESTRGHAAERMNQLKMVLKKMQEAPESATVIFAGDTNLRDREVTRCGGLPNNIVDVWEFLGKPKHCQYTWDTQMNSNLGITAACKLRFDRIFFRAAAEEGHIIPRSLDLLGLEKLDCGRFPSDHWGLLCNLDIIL
UniProt P00742, sequence (whole entry, looked up): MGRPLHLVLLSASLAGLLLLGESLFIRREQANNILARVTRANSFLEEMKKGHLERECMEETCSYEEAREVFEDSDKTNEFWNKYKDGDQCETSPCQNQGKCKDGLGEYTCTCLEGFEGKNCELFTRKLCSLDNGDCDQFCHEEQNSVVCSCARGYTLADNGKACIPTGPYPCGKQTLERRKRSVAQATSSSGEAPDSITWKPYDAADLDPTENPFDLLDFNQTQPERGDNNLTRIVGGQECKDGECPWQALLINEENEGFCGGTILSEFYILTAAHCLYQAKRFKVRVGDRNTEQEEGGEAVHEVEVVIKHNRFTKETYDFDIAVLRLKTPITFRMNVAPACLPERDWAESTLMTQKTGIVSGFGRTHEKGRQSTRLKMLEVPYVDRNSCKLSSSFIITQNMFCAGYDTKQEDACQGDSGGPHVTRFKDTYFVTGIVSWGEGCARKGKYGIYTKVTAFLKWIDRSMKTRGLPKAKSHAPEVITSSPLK

target | test | system | setting | scale | selectivity ratio | Compound
Chromobox protein homolog 8 | competitive fluorescence polarization | – | – | relative to: Cbx7 over Chromobox protein homolog 8 | 28 fold | C[C@H](NC(=O)[C@H](Cc1ccccc1)NC(=O)c1ccc(C(C)(C)C)cc1)C(=O)N[C@H](C(=O)N[C@@H](CCCC[N+](C)(C)C)C(=O)N[C@@H](CO)C(N)=O)C1CCCC1
CA12 | inhibitor, stopped-flow | – | – | relative to: Ki hCA II over Ki hCA XII | 2.19 | COc1ccc(/C(C)=N/NC(=O)CSc2nc3ccccc3c(=O)n2CCc2ccc(S(N)(=O)=O)cc2)cc1
CA12 | stopped-flow CO2 hydrase | – | – | relative to: Ki hCA I over Ki CA12 | 94 | NS(=O)(=O)c1ccc(Nc2nc3nccc(-c4ccc5ccccc5c4)n3n2)cc1
CA12 | inhibitor, stopped-flow | – | – | relative to: Ki hCA II over Ki hCA XII | 0.7 | COc1cccc(/C(C)=N/NC(=O)CSc2nc3ccccc3c(=O)n2CCc2ccc(S(N)(=O)=O)cc2)c1
CA12 | stopped-flow CO2 hydration | – | – | relative to: Ki hCA I over Ki hCA XII | 2.92 | COCCOc1cc2ncnc(Nc3cccc(-c4cn(CCc5ccc(S(N)(=O)=O)cc5)nn4)c3)c2cc1OCCOC
RNA G, G–G mismatch | binding, ITC | – | – | relative to: Kd RNA A over Kd RNA G | 29 | CN(C)CCNC(=O)c1cccc2c(NCCCCc3c(N)nc(N)nc3N)c3ccccc3nc12
Chromobox protein homolog 8 | TR-FRET | – | – | relative to: CBX8 over CBX7 | 21 fold | CC(C)C[C@H](NC(=O)[C@@H](NC(=O)[C@H](Cc1ccccc1)NC(=O)c1ccc(C(C)(C)C)cc1)C(C)C)C(=O)N[C@@H](CCCCN(C)C1CC2CCC1C2)C(=O)N[C@@H](CO)C(N)=O (stereo partly shown)
CA12 | inhibitor, stopped-flow | – | – | relative to: Ki hCA I over Ki hCA XII | 25.6 | COc1ccccc1/C=N/NC(=O)CSc1nc2ccccc2c(=O)n1CCc1ccc(S(N)(=O)=O)cc1
CA12 | thermal shift | – | – | relative to: Kd CA II over Kd CA XII | 11 | NS(=O)(=O)c1c(F)c(F)c(S(=O)(=O)CCc2ccccc2)c(NC2CCCCCCCCCCC2)c1F
Capn2 | – | mouse pons-cerebellum membranes | added: calcium 2 mM | relative to: IC50 calpain-1 over calpain-2 | 31.7 | CCC(NC(=O)C(CC(C)C)NC(=O)CCc1ccccc1)C(=O)C(=O)NCc1cc(F)cc(OC)c1 (stereo not shown)
CA12 | thermal shift | – | – | relative to: Kd CA II over Kd CA XII | 70 | NS(=O)(=O)c1cc(-c2ccccc2)cc(-c2ccccc2)c1
FKBP4 (Homo sapiens, UniProt Q02790) | enzyme activity, inhibitor | – | – | relative to: FKBP12 potency over FKBP4 potency | ~40 fold | COc1ccc(CC[C@H]2OC(=O)[C@@H]3CCCCN3C(=O)C(=O)C(C)(C)COC(=O)/C=C/CCN(C)C(=O)[C@H](CC(C)C)N(C)C(=O)[C@@H]3CCCN3C(=O)[C@H](Cc3ccccc3)N(C)C(=O)[C@H](c3ccccc3)NC(=O)CCC(=O)Nc3cccc2c3)cc1OC
CA12 | thermal shift | – | – | relative to: Kd CA XII over Kd CA II | 0.3 | NS(=O)(=O)c1c(F)c(F)c(S(=O)(=O)CCO)c(NCc2ccccc2)c1F
Chromobox protein homolog 6 | competitive fluorescence polarization | – | – | relative to: Cbx7 over Chromobox protein homolog 6 | 5.7 fold | CCN(CC)CCCC[C@H](NC(=O)[C@@H](NC(=O)[C@H](C)NC(=O)[C@H](Cc1ccccc1)NC(=O)c1ccc(C(F)(F)F)cc1)C1CCCC1)C(=O)N[C@@H](CO)C(N)=O
CA12 | inhibitor, stopped-flow | – | – | relative to: Ki hCA I over Ki hCA XII | 9.79 | C/C(=N\NC(=O)CSc1nc2ccccc2c(=O)n1CCc1ccc(S(N)(=O)=O)cc1)c1ccccc1
Capn2 | – | mouse pons-cerebellum membranes | added: calcium 2 mM | relative to: IC50 calpain-1 over calpain-2 | 9.2 | CCC(NC(=O)C(CC(C)C)NC(=O)NCc1ccccc1)C(=O)C(=O)NCc1cccc(OC)c1 (stereo not shown)

target | test | system | setting | scale | selectivity ratio | Compound
CA12 | inhibitor, stopped-flow | – | – | relative to: Ki hCA II over Ki hCA XII | 1.09 | COc1cccc(/C=N/NC(=O)CSc2nc3ccccc3c(=O)n2CCc2ccc(S(N)(=O)=O)cc2)c1
Capn2 | – | mouse pons-cerebellum membranes | added: calcium 2 mM | relative to: IC50 calpain-1 over calpain-2 | 2.4 | CCC(NC(=O)C(CC(C)C)NC(=O)NCc1ccc(C#N)cc1)C(=O)C(=O)NCc1cc(OC)cc(OC)c1 (stereo not shown)
CA12 | thermal shift | – | – | relative to: Kd CA II over Kd CA XII | 12 | Cc1cc(S(N)(=O)=O)c(Cl)cc1NC1CCCCC1
Capn2 | – | mouse pons-cerebellum membranes | added: calcium 2 mM | relative to: IC50 calpain-1 over calpain-2 | 2.1 | CCC(NC(=O)C(CC(C)C)NC(=O)CCc1ccncc1)C(=O)C(=O)NCc1cc(OC)cc(OC)c1 (stereo not shown)
F10 (Homo sapiens, UniProt P00742) | enzyme activity, inhibitor | – | – | relative to: factor XIa over factor Xa | > 14 fold | Cc1ccc(C(=O)Nc2ccc(CP(=O)(O)O)cc2CP(=O)(O)O)cc1NC(=O)c1cccc(NC(=O)Nc2cccc(C(=O)Nc3cc(C(=O)Nc4ccc(CP(=O)(O)O)cc4CP(=O)(O)O)ccc3C)c2)c1
CA12 | thermal shift | – | – | relative to: Kd CA XII over Kd CA II | 0.1 | NS(=O)(=O)c1c(F)c(F)c(S(=O)(=O)CCO)c(NC2CCCCCCCCCCC2)c1F
TDP2 (Homo sapiens, UniProt O95551) | – | – | – | relative to: TDP1 potency over TDP2 potency | 74 fold | N#Cc1ccc(-c2ccc(/C=N/OCc3ccc(-c4nc5cc(-c6ccccc6)ccn5c4Nc4ccc(C(=O)O)cc4)cc3)cc2)nc1
CA12 | thermal shift | – | – | relative to: Kd CA XII over Kd CA II | 17 | NS(=O)(=O)c1c(F)c(F)c(SCCc2ccccc2)c(F)c1N1CCOCC1
MAPK14 (Homo sapiens, UniProt Q16539) | – | – | – | relative to: JNK1 over MAPK14 | ~1000 fold | COC(=O)[C@@]1(C)C=C(C(=O)Nc2cccc(C(=O)Nc3ccc(Nc4nccc(-c5cccnc5)n4)c(C)c3)c2)C(=O)CC1
CA12 | stopped-flow CO2 hydrase | – | – | relative to: Ki hCA II over Ki CA12 | 5.3 | COc1cc(-c2ccnc3nc(Nc4ccc(S(N)(=O)=O)cc4)nn23)cc(OC)c1OC
CA12 | binding | – | – | relative to: Kd CA II over Kd CA XII | 49 | CNc1c(F)c(S(N)(=O)=O)c(F)c(F)c1S(=O)(=O)CCc1ccccc1
Capn2 | – | mouse pons-cerebellum membranes | added: calcium 2 mM | relative to: IC50 calpain-1 over calpain-2 | 10.1 | CCC(NC(=O)C(CC(C)C)NC(=O)CCc1ccc(C#N)cc1)C(=O)C(=O)NCc1cc(OC)cc(OC)c1 (stereo not shown)
CA12 | thermal shift | – | – | relative to: Kd CA XII over Kd CA II | 125 | NS(=O)(=O)c1c(F)c(F)c(S(=O)(=O)CCc2ccccc2)c(N2CCOCC2)c1F
Chromobox protein homolog 6 | competitive fluorescence polarization | – | – | relative to: Cbx7 over Chromobox protein homolog 6 | 9 fold | C[C@H](NC(=O)[C@H](Cc1ccccc1)NC(=O)c1ccc(C(F)(F)F)cc1)C(=O)N[C@H](C(=O)N[C@@H](CCCC[N+](C)(C)C)C(=O)N[C@@H](CO)C(N)=O)C1CCCC1
ROCK2 (Homo sapiens, UniProt O75116) | enzyme activity, inhibitor, radiometric filter binding | – | added: ATP at Km | relative to: IC50 ROCK1 over IC50 target | 44 fold | C[C@@H](N)C1CCN(S(=O)(=O)c2cccc3cnccc23)CC1

A few entries again:
target | test | system | setting | scale | selectivity ratio | Compound
CA12 | stopped-flow CO2 hydrase | – | – | relative to: Ki hCA I over Ki CA12 | 94 | NS(=O)(=O)c1ccc(Nc2nc3nccc(-c4ccc5ccccc5c4)n3n2)cc1
CA12 | inhibitor, stopped-flow | – | – | relative to: Ki hCA II over Ki hCA XII | 0.7 | COc1cccc(/C(C)=N/NC(=O)CSc2nc3ccccc3c(=O)n2CCc2ccc(S(N)(=O)=O)cc2)c1
CA12 | stopped-flow CO2 hydration | – | – | relative to: Ki hCA I over Ki hCA XII | 2.92 | COCCOc1cc2ncnc(Nc3cccc(-c4cn(CCc5ccc(S(N)(=O)=O)cc5)nn4)c3)c2cc1OCCOC
RNA G, G–G mismatch | binding, ITC | – | – | relative to: Kd RNA A over Kd RNA G | 29 | CN(C)CCNC(=O)c1cccc2c(NCCCCc3c(N)nc(N)nc3N)c3ccccc3nc12
